Measurements pooled from the literature.
Lines come from different studies, so protocols differ. pEC50, pIC50: −log10 of the molar value.

SMILES	cell line	test	setting	how to read	quantity	result
C[C@H](NCCc1ccc(O)cc1)C(=O)c1ccc(OCc2ccccc2)cc1	SK-BR-3		HER2 overexpression	reference: SK-BR-3 over MCF7, HCT-116	selectivity ratio	> 20 fold
O=C(/C=C/CCl)O[C@H]1COC(=O)C1	RAW264.7	NO release, inhibitor	LPS-stimulated		pIC50	4.41
CC(C)[C@@H]1NC(=O)[C@@H]2CSSC[C@H](NC(=O)[C@@H](N)CCCCN)C(=O)N[C@@H](CCCNC(=N)N)C(=O)N[C@@H](CCC(=O)O)C(=O)N[C@H]3CSSC[C@H](NC(=O)[C@H](CCCCN)NC(=O)CNC(=O)[C@H](CC(N)=O)NC1=O)C(=O)N[C@@H](C(C)C)C(=O)N[C@H](C(=O)N1CCC[C@H]1C(=O)N[C@@H](C)C(=O)O)CSSC[C@H](NC(=O)[C@H](CO)NC(=O)[C@@H]1CCCN1C(=O)[C@H](CO)NC(=O)[C@H]([C@@H](C)O)NC(=O)[C@H](CC(N)=O)NC(=O)CNC3=O)C(=O)N[C@@H](Cc1ccc(O)cc1)C(=O)N[C@@H](Cc1ccccc1)C(=O)N[C@@H](CO)C(=O)NCC(=O)N[C@@H](CC(N)=O)C(=O)N2	human CD4 effector memory T cells	flow cytometry	1.5 µM, 30 min pre-incubation, with: anti-CD3 for 24 h	reference: stimulated untreated	CD40L expression	~47%
C=CCN1CC[C@]23c4c5ccc(O)c4O[C@H]2/C(=N/NC(=O)c2ccccc2)CC[C@@]3(O)[C@H]1C5	HEK293 expressing MOR	morphine-induced cAMP overshoot, HTRF cAMP	1 µM, with: NKH 477 25 nM	reference: morphine control	Emax	48%
CCCCCCCCCCc1cn(Cc2cn([C@H]3C[C@H](OC(=O)OC[C@H]4O[C@@H](n5cc(C)c(=O)[nH]c5=O)C[C@@H]4N=[N+]=[N-])[C@@H](CO)O3)c(=O)[nH]c2=O)nn1	MT4	cell growth or viability			pIC50	4.48
C=CC=C[C@@H]1CC2=CC(=O)CC[C@]2(C)[C@H]2CC[C@]3(C)[C@@H](O)CC[C@H]3[C@H]12	DU-145	cell growth or viability, MTT	48 h		pIC50	4.54
Oc1ccc2c3c1O[C@H]1c4[nH]c5ccccc5c4C[C@@]4(O)[C@@H](C2)N(CC2CC2)CC[C@]314	HEK293 expressing MOR	morphine-induced cAMP overshoot, HTRF cAMP	1 µM, with: NKH 477 25 nM	reference: morphine control	Emax	72%
CCCCCCCCCCc1cn(Cc2cn([C@H]3C[C@H](O)[C@@H](COC(=O)OC[C@H]4O[C@@H](n5cc(C)c(=O)[nH]c5=O)C[C@@H]4N=[N+]=[N-])O3)c(=O)[nH]c2=O)nn1	MT4	cell growth or viability			pIC50	4.53
Brc1c(Br)c(Br)c2n[nH]nc2c1Br	HEK293 expressing MOR	morphine-induced cAMP overshoot, HTRF cAMP	1 µM, with: NKH 477 25 nM	reference: morphine control	efficacy	54%
C#C[C@@]1(O)[C@@H](CO)O[C@@H](n2cc(Cl)c3c(N)ncnc32)[C@@H]1O	HL-60	cell growth or viability, SRB	48 h		GI50	0.059 µM
CC(N)Cc1c[nH]c2ccc(OCc3cccs3)cc12 (stereo not drawn)	HepG2	phospholipidosis induction, inducer, high-content imaging	24 h, primary screen		pEC50	4.95
Oc1ccc2c3c1O[C@H]1c4oc5ccccc5c4C[C@@]4(O)[C@@H](C2)N(CC2CC2)CC[C@]314	HEK293 expressing MOR	morphine-induced cAMP overshoot, HTRF cAMP	1 µM, with: NKH 477 25 nM	reference: morphine control	Emax	128%
